Results of several laboratories.
A part holds a random share of what one study measured. Positions count from the first letter of the parent shown.

Study 1
Target: RNA binding protein fox-1 homolog 2, RRM domain, GST-SBP tag (RBFOX2, Homo sapiens, UniProt O43251-10, residues 100-194)
Technique: RNA Bind-n-Seq
Molecule type: RNA
Matrix: in vitro
Tested at: 365 nM
Setting: natural RNA segment, single round, ends assumed
Reference: no-protein control
Reading: higher = stronger binding
Measurement: RBNS enrichment (R)
Target sequence (chain): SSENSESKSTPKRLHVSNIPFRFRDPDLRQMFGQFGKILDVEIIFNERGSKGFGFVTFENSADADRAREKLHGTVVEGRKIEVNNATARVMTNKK
Sequence = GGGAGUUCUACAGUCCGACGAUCAAGUUUUAAAAUAGCUUUAGUUUUUAAAGUAAACUGGAUUUGUGGACCUUAAAGUUACUGAGUUUAAACUACAAAUUGUAACAUCAUUACUGAACAUGUCCGCAUCAACCUGGAAUUCUCGGGUGCCAA; value = 0.353
Sequence = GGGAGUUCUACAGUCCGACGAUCUGCUUAGUUGCCAAACAAGGGGUCUUCCACCCCCUAUUCUACUGAUUUCUGGACCCAGGGAAGGGAACUCAGCCCCUUACAACUCUUGGGGCUCCUCCAGGCCAGGGCCCUGGAAUUCUCGGGUGCCAA; value = 0.356
Sequence = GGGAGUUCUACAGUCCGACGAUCGAGUACCAUAGGAACUUUGUACCAGUUGGAAUUUAAGUGGACUGUUUGCUGCUUUUGUUCGCAUUGGAACGUUGGACAUGCCAUAUGAUACUGGCUUAGUAAUCAAUACCUGGAAUUCUCGGGUGCCAA; value = 0.305
Sequence = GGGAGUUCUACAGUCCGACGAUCUCUCUAUUCUAUCCUGGGUCUGCCUCAACCGUGAGAUAGGAGAGUCUCUGGUACUAGCUGCUGUAGCAGUGCCCUUCAUCCAGGGCAGUUAAUGGAGUCUUGGACCCUUUUGGAAUUCUCGGGUGCCAA; value = 0.456
Sequence = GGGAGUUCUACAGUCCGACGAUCACCUUGACGUUGCAGUGCAGUUUCACAGAUCGUUGUUAGAUCUUUAUUUUUAGCCAUGCACUGUUGUGAGGAAAAAUUACCUGUCUUGACUGCCAUGUGUUCAUCAUCUUUGGAAUUCUCGGGUGCCAA; value = 0.544
Sequence = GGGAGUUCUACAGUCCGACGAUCGAGCAGCAAACGUGCUCACCUGGUGUCUUGGAGCCCAGCCUCCUGCUGAGGUUGGGGGCUCUGCCAUCCCUCCCCUGCUGGGUACCCUGUUACCAUUCAUUGUCUGUGCUUGGAAUUCUCGGGUGCCAA; value = 0.564
Sequence = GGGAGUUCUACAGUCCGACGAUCUACACAUUUCCCCCAGGGACCCUGUCUUACGAUGCUUUUCUACGUCAAUGCAAUUGUGGCCAUCUGGCCACAAGCUCCAAGGGACUUACAAGCUCAAGGGCCAGAGCCCAUGGAAUUCUCGGGUGCCAA; value = 0.241
Sequence = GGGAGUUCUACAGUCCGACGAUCUGAACAGGGUGGAGGGGUGUGGGAAAGAAACCAGCCAUAUUGGUUUUGGUUUCUGUAUUUUUCACAAUGAUUAAUGAACAAAAACAAAGAGAAAAAAACACACAUCAAUUUGGAAUUCUCGGGUGCCAA; value = 0.508
Sequence = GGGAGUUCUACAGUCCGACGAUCUGGUUAUCCCAGAAACUUGUCUUCUAAAAGGGAGGACUCCAGGCCAUCAAUAAAGAUGUCCAGGCAGUGAGCGUACUUUUUACACCCUGUAGAAUUGUGGGCUGUAGCGUUGGAAUUCUCGGGUGCCAA; value = 0.391
Sequence = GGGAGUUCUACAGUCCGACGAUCCACUGCUGCUGGCUCCCGAGGACAGUGGGACUUUAGCAAGGAAGUGCAGCCGAGGGGUAAAGAGCCCUCUGGUUCAUUGCCUGAUCGGCUUUGAGAGAGGGUUUGGAGGGUGGAAUUCUCGGGUGCCAA; value = 0.83
Sequence = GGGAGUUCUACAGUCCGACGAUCGAUCAUACAUAUUUUGAAGAACAGACUGACCAAAGCUCACCUGUUUUUUGUGUUAGGUGCUUUGGCUGAACUUGAUUCCAGCCCCCUUUUCCCUUUGGUGUUGUGUAUGUUGGAAUUCUCGGGUGCCAA; value = 0.695
Sequence = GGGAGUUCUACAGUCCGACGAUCACUUUAGAGCCAAGGCCUGGCAGUCCUGCAGCCAGCCUCUGCUCGCAGCCGCAGACGGUCUGGACACCGCCGCAGGGGUGGGGUGAGGCGUCCCCCACCCUGCGGGACAGUGGAAUUCUCGGGUGCCAA; value = 0.33

Study 2
Target: ABI1, truncated, D143A, DHFR fusion (Arabidopsis thaliana)
Technique: DHFR PCA, deep sequencing
Matrix: yeast
Setting: methotrexate growth selection, single substitutions
Added: (+)-ABA 58 µM
Reference: wild-type fitted maximum
Reading: higher = stronger binding
Measurement: relative binding score
Starting sequence: PYL1, truncated, DHFR fusion (Arabidopsis thaliana); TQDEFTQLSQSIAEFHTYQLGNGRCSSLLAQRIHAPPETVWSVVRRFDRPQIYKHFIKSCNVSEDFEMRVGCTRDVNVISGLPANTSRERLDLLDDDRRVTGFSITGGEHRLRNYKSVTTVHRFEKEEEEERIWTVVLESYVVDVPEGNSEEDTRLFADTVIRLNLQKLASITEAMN
Variant = A30W; value = 92.8%
Variant = G21P; value = 83.6%
Variant = T1F; value = 85.6%
Variant = S87Q; value = 3.01%
Variant = T6R; value = 92%
Variant = H110M; value = 22.9%
Variant = L28P; value = 14.5%
Variant = Y115T; value = 0.914%
Variant = D153V; value = 9.29%
Variant = R45Q; value = -5.83%
Variant = N149G; value = 45.8%
Variant = D95I; value = 46.5%
Variant = F66W; value = 77.5%
Variant = E67G; value = 74.6%
Variant = S63I; value = 76.3%
Variant = G107L; value = 11.5%
Variant = V40L; value = -2.5%
Variant = L82T; value = 28.5%
Variant = T106Y; value = 88.6%
Variant = N61C; value = 82.8%
Variant = R46Q; value = 98.3%
Variant = R24F; value = 54.2%
Variant = K116A; value = 80%
Variant = S59Y; value = 61.6%
Variant = E109Q; value = 96.1%

Study 3
Target: TAR DNA-binding protein 43, full length, His tag (TARDBP, Homo sapiens, UniProt Q13148, residues 1-414)
Technique: RNA Bind-n-Seq
Molecule type: RNA
Matrix: in vitro
Tested at: 20 nM
Setting: 6-mer, flanks averaged, single round
Added: 150 mM KCl
Reference: input library
Reading: higher = stronger binding
Measurement: 6-mer enrichment (R)
Sequence = UGCUUU; value = 0.64
Sequence = UUCGGC; value = 0.747
Sequence = AUCGUC; value = 0.624
Sequence = CUGUGU; value = 0.867
Sequence = UAACAA; value = 1.01
Sequence = ACUUCC; value = 0.566
Sequence = UCUGUU; value = 0.612
Sequence = CCAAAG; value = 0.766
Sequence = CUGUCU; value = 0.593
Sequence = CGUUGU; value = 0.704
Sequence = CAGCGC; value = 0.902
Sequence = AAUAAG; value = 0.962
Sequence = AAACUA; value = 0.609
Sequence = CCGCUC; value = 0.612
Sequence = GUUAGU; value = 0.828
Sequence = ACCAGG; value = 1.14
Sequence = ACUACG; value = 0.68
Sequence = CACGAU; value = 0.632
Sequence = UUGCCU; value = 0.657
Sequence = AGAGAG; value = 1.73
Sequence = UGAAGC; value = 0.789
Sequence = AUAGCG; value = 0.943
Sequence = UCAGCA; value = 0.658
Sequence = ACUAGG; value = 1.03
Sequence = UCGAAC; value = 0.62

Study 4
Target: Sal-like protein 4, full length isoform A (SALL4, Homo sapiens, UniProt Q9UJQ4, residues 1-1053)
Sequence of UniProt Q9UJQ4 (whole entry, looked up): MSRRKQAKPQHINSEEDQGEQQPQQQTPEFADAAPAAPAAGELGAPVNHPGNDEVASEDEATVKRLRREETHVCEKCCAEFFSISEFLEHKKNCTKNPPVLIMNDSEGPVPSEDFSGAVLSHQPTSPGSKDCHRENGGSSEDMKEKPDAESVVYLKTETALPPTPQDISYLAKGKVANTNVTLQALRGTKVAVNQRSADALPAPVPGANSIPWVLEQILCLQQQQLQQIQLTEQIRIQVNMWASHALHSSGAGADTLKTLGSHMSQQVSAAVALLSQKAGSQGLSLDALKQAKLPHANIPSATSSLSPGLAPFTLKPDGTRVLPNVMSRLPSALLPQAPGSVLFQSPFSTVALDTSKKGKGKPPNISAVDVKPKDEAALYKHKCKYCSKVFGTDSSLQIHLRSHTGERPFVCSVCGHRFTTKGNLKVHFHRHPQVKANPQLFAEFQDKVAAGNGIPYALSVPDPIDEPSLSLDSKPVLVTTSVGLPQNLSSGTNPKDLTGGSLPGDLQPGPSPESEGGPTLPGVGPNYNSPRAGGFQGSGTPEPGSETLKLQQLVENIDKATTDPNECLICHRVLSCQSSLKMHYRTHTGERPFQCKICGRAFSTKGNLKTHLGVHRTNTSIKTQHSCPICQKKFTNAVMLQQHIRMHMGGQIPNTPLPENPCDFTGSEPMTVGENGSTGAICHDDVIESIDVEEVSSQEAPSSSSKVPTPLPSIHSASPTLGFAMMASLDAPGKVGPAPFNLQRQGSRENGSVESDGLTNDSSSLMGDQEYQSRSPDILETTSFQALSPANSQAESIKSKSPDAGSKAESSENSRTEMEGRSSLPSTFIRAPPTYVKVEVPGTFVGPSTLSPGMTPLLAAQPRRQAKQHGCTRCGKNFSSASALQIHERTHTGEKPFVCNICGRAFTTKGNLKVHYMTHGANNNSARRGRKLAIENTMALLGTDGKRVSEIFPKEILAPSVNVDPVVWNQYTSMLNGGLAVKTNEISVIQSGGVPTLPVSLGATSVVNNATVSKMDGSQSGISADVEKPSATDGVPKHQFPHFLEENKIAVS
Technique: universal PBM
Molecule type: double-stranded DNA, one strand shown
Matrix: in vitro
Tested at: 600 nM
Setting: 8-mer, flanks averaged, mean of replicates
Reading: higher = stronger binding
Measurement: E-score
Sequence = TCACGAAA; value = 0.192
Sequence = CGCTCATC; value = -0.0174
Sequence = AGAATGGG; value = -0.0923
Sequence = AATTCGAT; value = 0.206
Sequence = CCCACTGC; value = -0.231
Sequence = CGAGATGC; value = -0.0451
Sequence = ACGATGTC; value = -0.162
Sequence = AAGCCGGT; value = -0.152
Sequence = CGCTAGTC; value = -0.227
Sequence = AAATTGAG; value = 0.17
Sequence = CGTAAGAA; value = -0.00929
Sequence = ATCTACAT; value = 0.211
Sequence = AGGGGCGC; value = -0.288
Sequence = ACGTACAA; value = 0.126
Sequence = CACCGCCA; value = -0.133
Sequence = AATAAGTC; value = 0.275
Sequence = GGGCAACC; value = -0.319
Sequence = CGCTCTTC; value = -0.0923
Sequence = CGAATTCC; value = -0.0536
Sequence = GACCTAGA; value = -0.108

Study 5
Target: Interferon regulatory factor 7, full length, phosphomimetic (IRF7, Homo sapiens, UniProt Q92985, residues 1-503, S101K/S471D/S472D/S475D/S476D/S477D/S483D/S484D/S487D)
Sequence of UniProt Q92985 (whole entry, unmodified, looked up): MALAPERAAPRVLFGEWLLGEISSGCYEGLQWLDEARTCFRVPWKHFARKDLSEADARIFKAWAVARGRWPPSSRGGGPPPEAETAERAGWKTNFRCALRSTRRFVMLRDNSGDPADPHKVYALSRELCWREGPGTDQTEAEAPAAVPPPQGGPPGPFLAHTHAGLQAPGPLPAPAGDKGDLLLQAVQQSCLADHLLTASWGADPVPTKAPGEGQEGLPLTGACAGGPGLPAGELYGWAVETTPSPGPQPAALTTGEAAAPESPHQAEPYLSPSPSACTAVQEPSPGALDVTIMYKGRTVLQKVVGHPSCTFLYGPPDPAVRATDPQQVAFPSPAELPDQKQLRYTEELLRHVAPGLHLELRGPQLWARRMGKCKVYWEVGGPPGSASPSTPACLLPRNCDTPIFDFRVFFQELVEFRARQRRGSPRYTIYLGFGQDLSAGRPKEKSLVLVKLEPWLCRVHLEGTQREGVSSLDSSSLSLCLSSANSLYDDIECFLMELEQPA
Technique: protein-binding microarray
Molecule type: double-stranded DNA, one strand shown
Matrix: in vitro
Tested at: 250 nM
Setting: 60-bp whole probe
Added: salmon DNA 0.4 mg/ml
Reference: random background probes
Reading: higher = stronger binding
Measurement: log fluorescence
Shared flanks, not repeated: GCCTAGCAC … GTCTTGATTCGCTTGACGCTGCTG
Sequence = GACGGTCTCCTTCACCTGACGTGCTAG; value = -0.174 z-score
Sequence = TTATATTTCAGTATCGATTAGTGCTAG; value = 1.87 z-score
Sequence = TTAGGACTGAGTCTCGATTAGTGCTAG; value = 1.34 z-score
Sequence = AGAGTAAATTAAGTTAGAACGTGCTAG; value = 0.111 z-score
Sequence = TCAGGTCTCTTGTTCTCACTGTGCTAG; value = 0.683 z-score
Sequence = GGGACTTTGAATTAGAAAGAGTGCTAG; value = -0.0512 z-score
Sequence = TCACATTGAGATTTTCATACTGTGCTA; value = 0.643 z-score
Sequence = GACGATTTCACTCTCGAGACGTGCTAG; value = 0.32 z-score
Sequence = GGCTTTTTTTTTTTTTTTTTGTGCTAG; value = 0.168 z-score
Sequence = GACGCTATCGGTTTCGGGACGTGCTAG; value = 3.23 z-score
Sequence = GACGGACTTCTACTGCTGACGTGCTAG; value = -0.248 z-score
Sequence = TGATCCAAAAAGTGTGAGAAGTGCTAG; value = 0.358 z-score
Sequence = GGGCGGGTGCCAACTCTTAGGTGCTAG; value = -1.48 z-score
Sequence = TCACTTGTGTTTATTGTACTGTGCTAG; value = 0.483 z-score
Sequence = TTGGGTCTCGGTATCGGTTAGTGCTAG; value = 2.48 z-score
Sequence = TCAACCTTCGAGTCTGCAACTGTGCTA; value = -0.263 z-score
Sequence = TCAACTCTCTAATTTTGACTGTGCTAG; value = 0.0566 z-score
Sequence = TGAGGACTGGACACTGGGTTAGTGCTA; value = -0.717 z-score
Sequence = TTAGGTTTCGGTTTCGGTTCGTGCTAG; value = 15.8 z-score

Study 6
Target: Histone acetyltransferase KAT6A, both winged helices, GST fusion (KAT6A, Homo sapiens, UniProt Q92794, residues 1-181)
Technique: protein binding microarray
Molecule type: double-stranded DNA, one strand shown
Matrix: in vitro
Tested at: not given
Setting: 8-mer, flanks averaged, mean of 2 arrays, mostly near background
Reference: not given
Reading: higher = stronger binding
Measurement: E-score
Target sequence (chain): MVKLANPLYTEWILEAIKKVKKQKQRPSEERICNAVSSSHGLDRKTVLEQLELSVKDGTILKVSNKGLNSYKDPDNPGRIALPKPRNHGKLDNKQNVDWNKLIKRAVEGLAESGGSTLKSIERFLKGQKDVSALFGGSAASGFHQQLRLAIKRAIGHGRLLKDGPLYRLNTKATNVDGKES
Sequence = ACTGACTA; value = -0.154
Sequence = CCCTTGGC; value = -0.129
Sequence = AGGTACTC; value = -0.0577
Sequence = ACGAGTGG; value = -0.145
Sequence = CCACGGGC; value = 0.251
Sequence = GACCTTGA; value = -0.0387
Sequence = GTCCTCCA; value = -0.0121
Sequence = GATAGTCC; value = -0.0114
Sequence = GGGGTCAA; value = -0.119
Sequence = GCCAACCA; value = 0.0356
Sequence = GCCGGCAC; value = 0.28
Sequence = AACCACAT; value = -0.12
Sequence = AAAATACC; value = 0.011
Sequence = GTTCTTCA; value = -0.0222
Sequence = ACGTGATG; value = -0.111
Sequence = ACCAGGAG; value = -0.143
Sequence = CCCAGGCC; value = -0.0656
Sequence = CTGAGCTA; value = -0.01
Sequence = ATTAAGAA; value = -0.11

Repeated from above (study 3):
Sequence = UUCGGC; value = 0.747
Sequence = AUCGUC; value = 0.624
Sequence = CUGUGU; value = 0.867
Sequence = UAACAA; value = 1.01
Sequence = ACUUCC; value = 0.566
Sequence = UCUGUU; value = 0.612
Sequence = CCAAAG; value = 0.766
Sequence = CUGUCU; value = 0.593
Sequence = CGUUGU; value = 0.704
Sequence = CAGCGC; value = 0.902
Sequence = AAUAAG; value = 0.962
Sequence = AAACUA; value = 0.609
Sequence = CCGCUC; value = 0.612
Sequence = GUUAGU; value = 0.828
Sequence = ACCAGG; value = 1.14
Sequence = ACUACG; value = 0.68
Sequence = CACGAU; value = 0.632
Sequence = UUGCCU; value = 0.657
Sequence = AGAGAG; value = 1.73
Sequence = UGAAGC; value = 0.789
